Assay results collected from several papers.
Parts stem from different laboratories: compare values within a part only. Substitutions count along the parent as printed.
UniProt Q96SB4, sequence (whole entry, looked up): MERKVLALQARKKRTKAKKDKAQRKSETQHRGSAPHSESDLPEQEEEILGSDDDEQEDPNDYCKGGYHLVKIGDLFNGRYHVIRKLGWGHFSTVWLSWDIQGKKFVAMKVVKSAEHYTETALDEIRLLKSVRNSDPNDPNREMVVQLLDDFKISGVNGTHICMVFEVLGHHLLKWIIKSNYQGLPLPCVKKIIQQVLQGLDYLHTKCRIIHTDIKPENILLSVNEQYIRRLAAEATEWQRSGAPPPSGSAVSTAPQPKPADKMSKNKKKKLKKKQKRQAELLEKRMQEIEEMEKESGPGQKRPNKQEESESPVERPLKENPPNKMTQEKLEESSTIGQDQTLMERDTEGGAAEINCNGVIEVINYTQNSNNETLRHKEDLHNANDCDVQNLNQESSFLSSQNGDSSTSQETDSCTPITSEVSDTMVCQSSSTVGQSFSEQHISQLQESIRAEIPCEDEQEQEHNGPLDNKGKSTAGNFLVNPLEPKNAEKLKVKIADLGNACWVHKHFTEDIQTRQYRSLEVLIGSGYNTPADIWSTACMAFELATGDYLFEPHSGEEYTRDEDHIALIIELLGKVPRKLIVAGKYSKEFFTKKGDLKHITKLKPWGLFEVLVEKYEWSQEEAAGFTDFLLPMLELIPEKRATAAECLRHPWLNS
UniProt Q96B02, sequence (whole entry, looked up): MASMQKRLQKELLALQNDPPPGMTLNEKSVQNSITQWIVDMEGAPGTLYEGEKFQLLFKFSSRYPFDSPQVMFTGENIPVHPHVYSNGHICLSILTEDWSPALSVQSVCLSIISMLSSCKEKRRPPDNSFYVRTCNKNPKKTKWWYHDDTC
UniProt P61077, sequence (whole entry, looked up): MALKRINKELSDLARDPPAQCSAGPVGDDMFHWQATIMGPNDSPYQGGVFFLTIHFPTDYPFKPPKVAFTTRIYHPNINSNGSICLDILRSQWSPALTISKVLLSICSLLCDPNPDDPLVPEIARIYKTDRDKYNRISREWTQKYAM
UniProt P49459, sequence (whole entry, looked up): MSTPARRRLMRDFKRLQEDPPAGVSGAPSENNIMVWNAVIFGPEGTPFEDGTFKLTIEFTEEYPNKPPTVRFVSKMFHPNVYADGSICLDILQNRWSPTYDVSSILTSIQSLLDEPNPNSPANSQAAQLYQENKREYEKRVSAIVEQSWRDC

Series 1
Target: RNA binding protein fox-1 homolog 2, RRM domain, GST-SBP tag (RBFOX2, Homo sapiens, UniProt O43251-10, residues 100-194)
Method: RNA Bind-n-Seq
Molecule type: RNA
Matrix: in vitro
Tested at: 365 nM
Setting: natural RNA segment, single round, ends assumed
Baseline: no-protein control
Reading: higher = stronger binding
Shared flanks, not repeated: GGGAGUUCUACAGUCCGACGAUC … UGGAAUUCUCGGGUGCCAA
Target sequence (chain): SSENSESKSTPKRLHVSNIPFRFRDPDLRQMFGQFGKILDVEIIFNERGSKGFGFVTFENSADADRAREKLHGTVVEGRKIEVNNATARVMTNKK
Strand	RBNS enrichment (R)
CAAUAAAAGAGUCUGAAAAUUGGGAGAGAAAACCUACUCUAGGAGCCUCUGGUUACACAUAUUUUAGGCUUUUUUUCCCCCUGAAAUUGUACUUACUGAGGUCCAUGUAU	0.371
GCAAAAGCACAGACGUUCAUGUUUUCUAUCAUGUAAAAUCCUGUAGUUAAGCUGUAUAUUAGCAGUGAAGGUGUUAGAGAGAUGAGAUGAUGGUUUGAAAGUGUGUUGAA	2.05
CGGUGGGUGUUCCAUUUUUAUCCGCUACUCUUUAUUUCAUGGAGUCGUAUCAACGCUAUGAACGCAAGGCUGUGAUAUGGAACCAGAAGGCUGUUUGAACUUUUGAAACC	0.272
CUCCUACCCCUUUCCUCACCCCCAAACAAAGCAAAACAAAACAAACAAAAAUCUUCACCUGCCUUGGGCUGCGCAUAGGACAGGGCUCCACCUGCUGCCCAAGGGAUGUG	1.03
CCUCCCAUGACCAGGCAGUGGUCACCCCAUGGGACAGGCACAGCUACUUACGCGAACACAGCAGGUUGGUGUGGCUGGCUAACUAGGACCUCUCGAAAGUCUCUGUGGGG	0.307
CUCAGGAAUUCCCUGGUUUCCACUGGGCCACCCACUUGCUGGACAGUCUGAGCCAAGUCCCUCCUGCUGGAGAAAAGCCUGGAACUGCCAAAACAAAAAAACAAAUACAA	0.41
CAGUACUUGAAGUUCGUACUAGAGAAUUCCUUUGUAGUUUUGAAGCUUUUAUCCAAACUACUUUGAAAUAGGUGGCUUUCUUGUCAGUGGUUUGCCCCCCAGGUGUAAUU	0.745
AUCCUGAACCUCGUACUUCACCUAAUGUUAGGGGCUUGCUCGUCUGCACAGGACUUAUUAACAAGUUAACUCCCAGCCGGCCACUGUGUGCCCUGUACCCUUGCCUCUUC	0.347

Series 2
Target: CCNE1, cyclin fold, Cln2 fusion (human)
Method: yeast growth competition, sequencing
Matrix: yeast
Setting: strong parent motif
Baseline: not given
Reading: higher = stronger binding
Starting sequence: viral docking peptide; KGVKRKLFAEDSS
Change	normalised enrichment score
L7H	-0.0536
G2S	7.22
D11V	6.93
F8H	0.236

Series 3
Sequence: B1 (TRIM35 RING domain)
Method: yeast two-hybrid
Matrix: yeast
Setting: mostly zero background
Baseline: not given
Reading: higher = stronger interaction
B1: TRIM35 RING domain (UniProt Q9UPQ4); chain PSRSFKEELLCAVCYDPFRDAVTLRCGHNFCRGCVSRCWEVQVSPTCPVCKDRASPADLRT
target	lacZ reporter activity
UBE2A UBC core domain (UniProt P49459)	0
UBE2W UBC core domain (UniProt Q96B02)	0
UBE2D3 UBC core domain (UniProt P61077)	0

Single results of other studies
SMILES	target	observed	mode	tested at	baseline	endpoint	value
COC[C@H]1OC(=O)c2coc3c2[C@@]1(C)C1=C(C3=O)[C@@H]2CCC(=O)[C@@]2(C)C[C@H]1OC(C)=O	SRSF protein kinase 1 (SRPK1, Homo sapiens, UniProt Q96SB4)	enzyme activity	inhibitor	0.5 µM	control	remaining activity	94.4%

Repeated from above (series 3):
target	lacZ reporter activity
UBE2A UBC core domain (UniProt P49459)	0
